Measurements gathered from unrelated publications.
Compare with care: the assays were run in different laboratories. “And” joins repeats or separate records; there may be more than shown. Numbers after ± are the reported error.
uncharacterized protein: uncharacterized protein (Anopheles coluzzii, UniProt A0A6E8VQK1)
Sequence of UniProt P20782 (whole entry, unmodified, looked up): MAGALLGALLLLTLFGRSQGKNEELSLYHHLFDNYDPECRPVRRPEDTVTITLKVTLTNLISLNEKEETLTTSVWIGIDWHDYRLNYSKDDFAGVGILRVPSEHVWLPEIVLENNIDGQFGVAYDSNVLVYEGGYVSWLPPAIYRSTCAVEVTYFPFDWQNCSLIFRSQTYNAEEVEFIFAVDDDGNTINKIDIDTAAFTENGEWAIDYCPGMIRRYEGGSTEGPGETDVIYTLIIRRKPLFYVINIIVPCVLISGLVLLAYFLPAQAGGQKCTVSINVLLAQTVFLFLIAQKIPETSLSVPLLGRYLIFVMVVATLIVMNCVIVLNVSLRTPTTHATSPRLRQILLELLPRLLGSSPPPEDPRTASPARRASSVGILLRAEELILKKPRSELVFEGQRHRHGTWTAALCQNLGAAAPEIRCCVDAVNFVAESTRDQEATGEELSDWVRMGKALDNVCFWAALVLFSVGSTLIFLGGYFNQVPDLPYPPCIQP
Sequence of UniProt P04756 (whole entry, unmodified, looked up): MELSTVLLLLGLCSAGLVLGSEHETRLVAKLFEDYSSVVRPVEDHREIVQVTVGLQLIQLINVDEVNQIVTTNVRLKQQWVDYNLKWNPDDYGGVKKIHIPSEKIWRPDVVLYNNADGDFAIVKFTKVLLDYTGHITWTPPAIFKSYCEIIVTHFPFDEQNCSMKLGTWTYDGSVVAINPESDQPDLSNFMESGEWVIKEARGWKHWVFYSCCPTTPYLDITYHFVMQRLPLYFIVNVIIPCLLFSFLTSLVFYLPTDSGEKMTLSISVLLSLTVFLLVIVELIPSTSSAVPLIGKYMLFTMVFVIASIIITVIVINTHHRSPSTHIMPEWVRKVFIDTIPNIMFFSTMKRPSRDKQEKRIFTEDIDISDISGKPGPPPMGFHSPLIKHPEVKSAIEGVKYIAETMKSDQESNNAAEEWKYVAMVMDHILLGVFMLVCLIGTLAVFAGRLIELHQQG
Sequence of UniProt P02716 (whole entry, unmodified, looked up): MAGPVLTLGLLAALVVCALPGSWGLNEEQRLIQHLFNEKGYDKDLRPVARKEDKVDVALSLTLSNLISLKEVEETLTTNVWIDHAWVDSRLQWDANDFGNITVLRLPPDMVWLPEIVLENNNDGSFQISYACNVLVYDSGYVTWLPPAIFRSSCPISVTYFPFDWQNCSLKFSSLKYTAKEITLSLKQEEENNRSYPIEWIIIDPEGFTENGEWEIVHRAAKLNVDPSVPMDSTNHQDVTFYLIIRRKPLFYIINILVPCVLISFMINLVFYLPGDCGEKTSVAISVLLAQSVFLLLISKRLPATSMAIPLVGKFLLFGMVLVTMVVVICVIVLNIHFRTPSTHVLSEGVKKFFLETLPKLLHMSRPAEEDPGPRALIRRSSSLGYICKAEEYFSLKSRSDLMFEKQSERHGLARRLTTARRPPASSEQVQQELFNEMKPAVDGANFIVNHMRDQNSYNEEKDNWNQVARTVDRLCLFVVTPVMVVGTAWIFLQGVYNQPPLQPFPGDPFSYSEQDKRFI
Sequence of UniProt Q96E52 (whole entry, looked up): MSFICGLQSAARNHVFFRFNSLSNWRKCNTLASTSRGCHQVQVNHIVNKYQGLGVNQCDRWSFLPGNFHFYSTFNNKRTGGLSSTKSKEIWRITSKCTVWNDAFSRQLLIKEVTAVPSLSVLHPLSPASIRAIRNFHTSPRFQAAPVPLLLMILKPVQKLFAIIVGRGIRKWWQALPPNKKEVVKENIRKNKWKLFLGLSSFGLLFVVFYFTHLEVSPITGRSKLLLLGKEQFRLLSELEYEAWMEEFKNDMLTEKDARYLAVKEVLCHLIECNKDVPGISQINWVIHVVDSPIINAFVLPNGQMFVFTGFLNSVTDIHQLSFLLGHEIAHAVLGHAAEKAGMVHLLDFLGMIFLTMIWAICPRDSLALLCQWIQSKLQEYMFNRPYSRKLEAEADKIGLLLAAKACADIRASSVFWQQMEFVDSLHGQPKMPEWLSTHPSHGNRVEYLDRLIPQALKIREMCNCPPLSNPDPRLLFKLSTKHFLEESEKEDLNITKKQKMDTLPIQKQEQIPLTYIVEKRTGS
Sequence of UniProt P33981 (whole entry, looked up): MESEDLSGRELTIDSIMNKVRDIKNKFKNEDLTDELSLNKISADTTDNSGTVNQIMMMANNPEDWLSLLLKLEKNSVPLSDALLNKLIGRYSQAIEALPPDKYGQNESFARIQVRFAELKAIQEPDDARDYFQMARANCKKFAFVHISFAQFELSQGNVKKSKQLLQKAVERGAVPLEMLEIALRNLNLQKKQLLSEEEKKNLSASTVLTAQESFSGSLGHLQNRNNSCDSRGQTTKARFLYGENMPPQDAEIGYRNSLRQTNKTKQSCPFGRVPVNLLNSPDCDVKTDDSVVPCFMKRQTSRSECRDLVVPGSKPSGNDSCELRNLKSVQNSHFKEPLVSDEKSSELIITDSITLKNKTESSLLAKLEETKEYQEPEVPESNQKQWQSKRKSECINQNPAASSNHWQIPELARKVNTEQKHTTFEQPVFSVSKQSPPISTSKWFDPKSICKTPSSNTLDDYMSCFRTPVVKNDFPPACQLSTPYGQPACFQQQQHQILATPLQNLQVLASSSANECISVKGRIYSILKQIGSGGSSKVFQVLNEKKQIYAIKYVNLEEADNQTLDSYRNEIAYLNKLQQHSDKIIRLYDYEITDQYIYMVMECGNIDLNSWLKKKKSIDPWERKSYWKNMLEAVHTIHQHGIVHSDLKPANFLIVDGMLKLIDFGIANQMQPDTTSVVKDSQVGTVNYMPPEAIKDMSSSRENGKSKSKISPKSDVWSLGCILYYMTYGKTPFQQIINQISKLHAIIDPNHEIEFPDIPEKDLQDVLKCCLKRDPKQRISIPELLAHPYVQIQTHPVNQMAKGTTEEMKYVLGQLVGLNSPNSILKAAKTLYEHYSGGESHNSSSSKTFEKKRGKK
Sequence of UniProt Q92731 (whole entry, looked up): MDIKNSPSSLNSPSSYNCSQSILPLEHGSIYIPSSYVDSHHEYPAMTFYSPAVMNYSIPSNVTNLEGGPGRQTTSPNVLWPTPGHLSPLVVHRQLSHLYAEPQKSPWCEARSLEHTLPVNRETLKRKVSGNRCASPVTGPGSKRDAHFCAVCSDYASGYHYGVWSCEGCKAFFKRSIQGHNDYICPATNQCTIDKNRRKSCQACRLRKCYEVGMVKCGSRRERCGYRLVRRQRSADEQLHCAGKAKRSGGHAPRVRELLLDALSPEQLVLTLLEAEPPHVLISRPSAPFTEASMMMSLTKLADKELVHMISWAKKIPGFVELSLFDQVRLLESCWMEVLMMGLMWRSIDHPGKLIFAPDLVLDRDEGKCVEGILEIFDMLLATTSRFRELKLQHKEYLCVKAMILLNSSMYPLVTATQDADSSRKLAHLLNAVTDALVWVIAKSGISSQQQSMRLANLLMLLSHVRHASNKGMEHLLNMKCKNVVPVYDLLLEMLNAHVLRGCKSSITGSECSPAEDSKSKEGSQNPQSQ
Sequence of UniProt Q8IW41 (whole entry, looked up): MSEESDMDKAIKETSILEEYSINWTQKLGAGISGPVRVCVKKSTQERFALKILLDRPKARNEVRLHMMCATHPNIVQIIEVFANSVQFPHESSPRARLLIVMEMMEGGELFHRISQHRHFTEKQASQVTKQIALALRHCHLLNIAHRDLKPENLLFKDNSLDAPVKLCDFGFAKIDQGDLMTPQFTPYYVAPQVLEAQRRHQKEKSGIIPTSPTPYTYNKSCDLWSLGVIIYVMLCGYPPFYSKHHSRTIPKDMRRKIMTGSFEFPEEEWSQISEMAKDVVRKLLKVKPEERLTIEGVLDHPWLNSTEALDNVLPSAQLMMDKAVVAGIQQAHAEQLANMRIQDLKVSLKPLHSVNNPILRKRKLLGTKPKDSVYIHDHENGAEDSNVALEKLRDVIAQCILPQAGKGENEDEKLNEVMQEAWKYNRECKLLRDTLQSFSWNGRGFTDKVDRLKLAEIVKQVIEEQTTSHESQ
Sequence of UniProt H2K887 (whole entry, looked up): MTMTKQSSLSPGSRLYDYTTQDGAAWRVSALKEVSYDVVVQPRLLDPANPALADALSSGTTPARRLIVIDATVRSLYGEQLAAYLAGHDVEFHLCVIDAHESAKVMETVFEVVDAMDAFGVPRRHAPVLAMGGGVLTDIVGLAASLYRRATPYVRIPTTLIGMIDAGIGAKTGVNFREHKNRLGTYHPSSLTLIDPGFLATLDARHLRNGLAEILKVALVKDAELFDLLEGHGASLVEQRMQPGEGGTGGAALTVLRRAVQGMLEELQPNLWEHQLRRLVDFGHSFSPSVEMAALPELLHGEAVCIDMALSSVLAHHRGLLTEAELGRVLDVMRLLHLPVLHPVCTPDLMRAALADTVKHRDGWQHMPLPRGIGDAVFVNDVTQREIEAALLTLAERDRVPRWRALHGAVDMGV
Sequence of UniProt A2RJT9 (whole entry, unmodified, looked up): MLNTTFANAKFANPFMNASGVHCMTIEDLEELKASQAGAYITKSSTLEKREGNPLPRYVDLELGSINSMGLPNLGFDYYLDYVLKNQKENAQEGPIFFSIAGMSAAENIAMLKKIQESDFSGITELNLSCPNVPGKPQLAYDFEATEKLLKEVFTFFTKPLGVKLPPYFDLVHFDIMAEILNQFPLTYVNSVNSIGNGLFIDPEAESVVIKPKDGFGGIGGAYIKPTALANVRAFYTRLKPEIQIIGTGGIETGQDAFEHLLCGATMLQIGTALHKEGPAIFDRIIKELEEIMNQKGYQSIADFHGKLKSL
Sequence of UniProt O95977 (whole entry, looked up): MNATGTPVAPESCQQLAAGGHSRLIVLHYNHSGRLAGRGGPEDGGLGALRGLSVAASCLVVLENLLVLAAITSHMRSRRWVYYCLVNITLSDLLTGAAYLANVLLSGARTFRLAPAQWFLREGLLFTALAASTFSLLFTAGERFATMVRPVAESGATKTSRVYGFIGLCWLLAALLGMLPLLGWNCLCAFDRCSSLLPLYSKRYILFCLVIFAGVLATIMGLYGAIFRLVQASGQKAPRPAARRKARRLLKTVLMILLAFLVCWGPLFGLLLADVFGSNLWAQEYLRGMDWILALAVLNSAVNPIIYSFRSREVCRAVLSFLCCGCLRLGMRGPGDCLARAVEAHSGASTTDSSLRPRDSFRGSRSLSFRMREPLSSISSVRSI

| Structure (SMILES) | target | test | system | conditions | scale | endpoint | value |
| --- | --- | --- | --- | --- | --- | --- | --- |
| CN(C(=O)n1cnc(-c2ccc[n+]([O-])c2)c1)C1CCCCC1 | PTGER1 (Homo sapiens, UniProt P34995) | binding, measured: EP1 | – | 50 µM, human, with: [3H]prostaglandin E2 | – | inhibition | 12% |
| [2H]c1c([2H])c([C@]2([2H])CCCN2C(=O)C(C)(C)Oc2ccc3cn[nH]c3c2)c([2H])c([2H])c1C([2H])([2H])[2H] | NUAK2 (Homo sapiens, UniProt Q9H093) | KINOMEscan | – | 1 µM | relative to: DMSO control | remaining binding | 100% |
| COc1ccc(N2C(=O)N(c3c(C)cccc3Cl)Cc3cnc(Nc4ccc(C5CCN(C)CC5)cc4OC)nc32)nc1 | MAPKAPK5 (Homo sapiens, UniProt Q8IW41) | kinase activity, inhibitor | – | 0.5 µM, kinase PRAK | – | inhibition | 2.52% |
| C[C@H]1CN(c2n[nH]c3nc(N[C@H]4CC[C@H](NS(=O)(=O)CCC(F)(F)F)CC4)ncc23)CCO1 | DYNC1H1 (Homo sapiens, UniProt Q14204) | inhibitor, Kinobeads competition profiling | – | 0.8 µM | relative to: vehicle | relative abundance | 1.05 |
| O=C(Nc1cnccc1Cl)N1CCN(Cc2ccc3c(c2)OC(F)(F)O3)CC1 | Adra1a (Rattus norvegicus, UniProt P43140) | binding | – | 50 µM, with: [3H]prazosin | – | inhibition | -10% |
| CNC(=O)[C@H]1[Se][C@@H](n2cnc3c(NCc4cccc(I)c4)ncnc32)[C@H](O)[C@@H]1O | ADORA3 (Homo sapiens, UniProt P0DMS8) | radioligand binding | – | – | relative to: Ki A1 over Ki A3 | selectivity ratio | ≥ 800 fold |
| CCCCCCCCCCCCCCCC[N+](C)(C)C.[Br-] | Sodium channel protein type 4 alpha, BTX-activated (Oryctolagus cuniculus, UniProt G1SLL9) | – | rabbit | – | – | mean open time | 205 ms and 405 ms |
| CC[C@@H](C)[C@@H](NC(=O)[C@@H](Cc1ccc(O)cc1)NC(=O)[C@H]1CCCN1C(=O)[C@@H](CCCNC(=N)N)NC(=O)[C@H](N)Cc1c[nH]cn1)C(=O)N[C@H](C)C(=O)N[C@H](Cc1c[nH]cn1)C(=O)N[C@H](CCCNC(=N)N)C(=O)N[C@H](CCCCNC(=O)c1cccc(S(=O)(=O)F)c1)C(=O)N[C@H](Cc1ccc(O)cc1)C(=O)N[C@H](CO)C(=O)N[C@H](Cc1ccccc1)C(N)=O | Transferrin receptor protein 1 (Tfrc, Mus musculus, UniProt Q62351) | flow cytometry | B16 | 48 h, unit not given | relative to: 0 h | surface TFRC expression | 0.396 |
| O=C1CC(C(=O)O)NC(=O)N1 (centres unmarked) | Dihydroorotate dehydrogenase A (fumarate) (pyrDA, Lactococcus lactis subsp. cremoris, UniProt A2RJT9, C130S/L71F/V133T) | substrate | Lactococcus lactis | concentration not given, 25 °C | – | flavin reduction rate | 9.7e-06 ± 3e-07 s⁻¹ |
| COc1cc(Nc2ncc(F)c(Nc3ccc4c(n3)NC(=O)C(C)(C)O4)n2)cc(OC)c1OC | GRK1 (Homo sapiens, UniProt Q15835) | KINOMEscan | – | 10 µM | – | inhibition | 57% |
| COC(=O)[C@H]1[C@H]2C[C@@H]3c4[nH]c5cc(OC)ccc5c4CCN3C[C@H]2C[C@@H](OC(=O)c2cc(OC)c(OC)c(OC)c2)[C@@H]1OC | SLC18A2 (Homo sapiens, UniProt Q05940) | inhibitor | HEK293 | 1 µM, with: FFN206 | – | FFN206 uptake | inhibited |
| CC12CCC(CC1)C(C)(C)O2 | 1,8-cineole 2-endo-monooxygenase (cinA, Citrobacter braakii, UniProt Q8VQF6) | isothermal titration calorimetry | – | wild type | – | ΔG | -6.8 kcal/mol |
| CC(C)(COP(=O)(O)OP(=O)(O)OC[C@H]1O[C@@H](n2cnc3c(N)ncnc32)[C@H](O)[C@@H]1OP(=O)(O)O)[C@@H](O)C(=O)NCCC(=O)NCCS | matB (Rhodopseudomonas palustris, UniProt Q6ND88, C106A/K488A/Q457C/R286C) | binding, intrinsic fluorescence | – | 0.25 mM, 1 µM matB, 10 mM MgCl2 | – | fluorescence ratio F+/F- | 0.96 |
| O=P(O)(O)OC[C@H]1C[C@@](O)(CO)[C@@H](O)[C@H](O)[C@@H]1O | valA (Streptomyces hygroscopicus, UniProt H2K887) | phosphate release | – | 10 µM | – | apparent Vmax | 3.2 ± 0.4 µM/min |
| O=C(Nc1cccnn1)N1CCC(=Cc2cccc(Oc3ccc(C(F)(F)F)cn3)c2)CC1 | ESR2 (Homo sapiens, UniProt Q92731) | radioligand binding | – | 50 µM, with: [3H]estradiol | – | inhibition of binding | 0% |
| CC1=NCCc2c1[nH]c1cc(O)ccc21 | DCLRE1A (Homo sapiens, UniProt Q6PJP8) | exonuclease activity, fluorescence | – | 10 µM, 80 min, with: 8 nM DNA substrate | – | remaining activity | 13.9% |
| CC(C)[C@@H]1NC(=O)[C@H](C)OC(=O)[C@@H](C(C)C)NC(=O)[C@@H](C(C)C)OC(=O)[C@H](C(C)C)NC(=O)[C@H](C)OC(=O)[C@@H](C(C)C)NC(=O)[C@@H](C(C)C)OC(=O)[C@H](C(C)C)NC(=O)[C@H](C)OC(=O)[C@@H](C(C)C)NC(=O)[C@@H](C(C)C)OC1=O | Metalloendopeptidase OMA1, mitochondrial (OMA1, Homo sapiens, UniProt Q96E52) | Western blot, measured: OMA1 | HEK293T, control siRNA | concentration not given | – | protein level | 73.4 ± 6.7% |
| C[C@@H](O)[C@H](NC(=O)c1ccc(-c2ccc(Br)cc2)cc1)C(=O)NO | UDP-3-O-acyl-N-acetylglucosamine deacetylase (Pseudomonas aeruginosa, UniProt P47205, C40S) | ITC | – | concentration not given, 298 K | – | -TΔS of binding | -4.92 kcal/mol |

| Structure (SMILES) | target | test | system | conditions | scale | endpoint | value |
| --- | --- | --- | --- | --- | --- | --- | --- |
| CN1CCN(c2cc(-c3ccncc3)c(-c3ccc4ccccc4c3)nn2)CC1 | S1PR4 (Homo sapiens, UniProt O95977) | antagonist, FLIPR | – | 10 µM | – | inhibition | -6.7% |
| Nc1ncc(-c2nc(N3CCOCC3)nc(N3CCOCC3)n2)c(C(F)F)n1 | CDK19 (Homo sapiens, UniProt Q9BWU1) | KINOMEscan | – | 10 µM | relative to: control | remaining binding | 69% |
| CC(CCn1ccc(-c2ccc(-c3cn(Cc4ccccn4)nn3)cc2)cc1=O)(C(=O)NO)S(C)(=O)=O (centres unmarked) | UDP-3-O-acyl-N-acetylglucosamine deacetylase (Pseudomonas aeruginosa, UniProt P47205) | fluorescence | – | 37 °C | – | residence time | ~120 min |
| N[C@@H](Cc1ccc(O)cc1)C(=O)O | Iodotyrosine deiodinase (Haliscomenobacter hydrossis, UniProt F4KU78) | binding, fluorescence | – | – | relative to: iodotyrosine over compound, higher = weaker than iodotyrosine | affinity ratio | ≥ 100 fold |
| CNC(=O)Oc1cccc2c1OC(C)(C)O2 | uncharacterized protein | enzyme activity, inhibitor | Sf9 cell homogenate | 18.6 µM, 0.1667 h, with: α-naphthyl acetate substrate | relative to: no inhibitor | remaining activity | 19.2% |
| c1ccc2c(c1)cc1ccc3cccc4ccc2c1c34 | Ahr (Rattus norvegicus, UniProt P41738) | agonist, CALUX reporter | H4IIE | 0.126 µg/mL | – | agonist response | 100% |
| O=C(c1ccc(Cl)cc1)N1CCN2C(=O)N(OC(=O)N3CCOc4ccccc43)C(=O)C2C1 (centres unmarked) | LIPA (Homo sapiens, UniProt P38571) | enzyme activity, inhibitor, MS-based ABPP | SW-620 in situ | 10 µM, 2 h, 37 °C | relative to: compound over DMSO, lower = stronger inhibition | median ratio | 0.99 |
| C[C@@H]1C[C@@H]([C@H](O)CC2CC(=O)NC(=O)C2)C(=O)[C@@H](C)C1 | Protein transport protein Sec61 subunit alpha isoform 1 (Homo sapiens, UniProt P61619) | Sec61-dependent translocation, inhibitor, measured: CD4 signal peptide-FLuc reporter | HEK293 | concentration not given | relative to: mock | FLuc/RLuc ratio | 0.177 |
| Nc1ccc2c3c(cccc13)C(=O)NC2=O | blaNDM-1 (Klebsiella pneumoniae, UniProt C7C422) | inhibitor | – | – | – | Hill coefficient | 0.9 |
| C[N+](C)(C)CCOC(N)=O | Chrnd/Chrna1/Chrne (Mus musculus, UniProt P02716+P04756+P20782) | – | mouse end plates | 20 µM, unit not given | relative to: control | endplate depolarization response | 0.344 |
| C#CCCCCNC(=O)CI | 3-ketoacyl-CoA thiolase, mitochondrial (Homo sapiens, UniProt P42765) | mass spectrometry profiling | Ramos cell lysate | 100 µM over 10 µM, UniProt P42765 | relative to: high over low concentration | reactivity ratio | 1.66 |
| C/C=C1/C(=O)C[C@H]2[C@@H]3CCC4=CC(=O)CC[C@]4(C)[C@H]3CC[C@]12C | Nuclear receptor subfamily 1 group I member 3 (Homo sapiens, UniProt Q14994) | – | cells | concentration not given | – | activity | inactive |
| CC[C@H](CO)Nc1nc(NCc2ccccc2)c2ncn(C(C)C)c2n1 | TTK (Homo sapiens, UniProt P33981) | KINOMEscan | – | 10 µM | direction not given | binding score | 8.8 |
| Cc1nn(C)cc1-c1nc2c(N3CCN(Cc4ccc(Cl)cc4)CC3)c(Cl)cnc2[nH]1 | ULK3 (Homo sapiens, UniProt Q6PHR2) | KINOMEscan | – | 1 µM | relative to: DMSO control | remaining binding | 85% |
| CC[C@H](C)[C@H](NC(=O)[C@@H](NC(=O)[C@H](CC(C)C)NC(=O)[C@H](CC(N)=O)NC(=O)[C@H](CC(=O)O)NC(=O)[C@H](CCC(=O)O)NC(=O)[C@@H](NC(=O)[C@@H](N)CCCNC(=N)N)[C@@H](C)CC)C(C)C)C(=O)N[C@H](C(=O)N[C@@H](CCCNC(=N)N)C(=O)O)[C@@H](C)CC | Epithelial sodium channel subunit gamma (Homo sapiens, UniProt P51170) | binding, bio-layer interferometry | – | – | – | kon | 241 M⁻¹ s⁻¹ |
| CCOC(=O)CC(SP(=O)(OC)OC)C(=O)OCC (centres unmarked) | uncharacterized protein | enzyme activity, inhibitor | Sf9 cell homogenate | 0.0004587 µM, 0.1667 h, with: α-naphthyl acetate substrate | relative to: no inhibitor | remaining activity | 98.3% |
| C[N+](C)(C)C | Chrnd/Chrna1/Chrne (Mus musculus, UniProt P02716+P04756+P20782, G173A/S470W) | ligand binding, agonist, single-channel kinetics | – | chain A | relative to: wild type over mutant | affinity ratio | 0.7 |

For quick reference, copied from above:
| Structure (SMILES) | target | test | system | conditions | scale | endpoint | value |
| --- | --- | --- | --- | --- | --- | --- | --- |
| CC(C)[C@@H]1NC(=O)[C@H](C)OC(=O)[C@@H](C(C)C)NC(=O)[C@@H](C(C)C)OC(=O)[C@H](C(C)C)NC(=O)[C@H](C)OC(=O)[C@@H](C(C)C)NC(=O)[C@@H](C(C)C)OC(=O)[C@H](C(C)C)NC(=O)[C@H](C)OC(=O)[C@@H](C(C)C)NC(=O)[C@@H](C(C)C)OC1=O | Metalloendopeptidase OMA1, mitochondrial (OMA1, Homo sapiens, UniProt Q96E52) | Western blot, measured: OMA1 | HEK293T, control siRNA | concentration not given | – | protein level | 73.4 ± 6.7% |
| C[C@@H](O)[C@H](NC(=O)c1ccc(-c2ccc(Br)cc2)cc1)C(=O)NO | UDP-3-O-acyl-N-acetylglucosamine deacetylase (Pseudomonas aeruginosa, UniProt P47205, C40S) | ITC | – | concentration not given, 298 K | – | -TΔS of binding | -4.92 kcal/mol |
| CN1CCN(c2cc(-c3ccncc3)c(-c3ccc4ccccc4c3)nn2)CC1 | S1PR4 (Homo sapiens, UniProt O95977) | antagonist, FLIPR | – | 10 µM | – | inhibition | -6.7% |
